Measured values pooled from the literature.
Lines come from different studies, so protocols differ. Numbers after ± are the reported error.

Structure (SMILES) = CC(C)C[C@H](NC=O)C(=O)N[C@@H](C)C(=O)N[C@@H](C)C(=O)N[C@@H](CC(=O)O)C(=O)N[C@@H](CC(C)C)C(=O)N[C@@H](CC(C)C)C(=O)N[C@@H](C)C(=O)N[C@@H](C)C(=O)N[C@@H](CC(C)C)C(=O)NCC(=O)N[C@@H](CC(=O)O)C(=O)N[C@@H](CC(C)C)C(=O)N[C@@H](CC(C)C)C(=O)N[C@@H](CCCCN)C(=O)N[C@@H](Cc1c[nH]c2ccccc12)C(=O)N[C@@H](CC(C)C)C(=O)N[C@@H](CC(C)C)C(=O)N[C@@H](CC(=O)O)C(=O)N[C@@H](C)C(=O)N[C@@H](CC(C)C)C(=O)N[C@@H](C)C(=O)N[C@@H](CCCCN)C(=O)N[C@@H](CC(C)C)C(=O)N[C@@H](C)C(=O)N[C@@H](CCCCN)C(=O)N[C@@H](CCCCN)C(=O)O (racemic); assay = circular dichroism; test system = phosphate buffer 10 mM; conditions = 1 to 5 µM, pH 7.5, approximate; measurement = helicity; result = 59%
Structure (SMILES) = CC(C)[C@H](NC(=O)CNC(=O)[C@H](CCC(N)=O)NC(=O)[C@H](C)N)C(=O)O; test system = healthy human; conditions = intravenous, 10 mg/kg single dose; scale = baseline: subjects; measurement = subjects with adverse events; result = 33.3%
Structure (SMILES) = C[C@]12CC[C@H](O)CC1CCC1C2[C@H](O)C(=O)[C@]2(C)[C@@H](c3ccc(=O)oc3)CC[C@]12O (stereo partly shown); assay = sulfation, substrate; test system = guinea pig liver cytosol; conditions = pH 7.4; measurement = CLint; result = 0.88 µL/min/mg
Structure (SMILES) = CN[C@](C)(C[18F])C(=O)O; tested on = DU-145 tumour model; test system = host not given, liver; conditions = 30 min, tumour-bearing; measurement = tracer uptake; result = 5.5 %ID/g
Structure (SMILES) = CC[C@H](C)C(=O)N1CCC(NC(=O)Nc2ccc(OC(F)(F)F)c(F)c2)CC1; test system = healthy volunteers; conditions = oral, 0.5 mg single dose, 14 (unit not given); measurement = subjects with any AE; result = 33.3%
Structure (SMILES) = Cc1nnc(-c2ccc(CC(=O)NCCNC(=O)[C@H](CCCCNC(=O)CNC(=O)[C@H](CCCCN)NC(=O)[C@H](CC(=O)O)NC(=O)[C@H](CC(=O)O)NC(=O)[C@H](CC(=O)O)NC(=O)[C@H](CC(=O)O)NC(=O)[C@H](CCCCN)NC(=O)[C@H](Cc3ccc(O)cc3)NC(=O)[C@@H](N)CC(=O)O)NC(=O)[C@H](Cc3ccccc3)NC(=O)[C@H](Cc3ccccc3)NC(=O)Cc3ccc4ccccc4c3)cc2)nn1; assay = chemical stability, mass spectrometry; test system = human, serum; conditions = 200 µM, 4 h; measurement = compound remaining; result = ~70%
Structure (SMILES) = CC(C)(CCCC/C=C/CCCCCC(C)(C)C(=O)O)C(=O)O; test system = beagle dog, plasma; conditions = intravenous, 5 mg/kg; measurement = AUC(0-t); result = 534 µg·h/mL
Structure (SMILES) = N=C(N)NCc1ccc(C(=O)NCCCC[C@H](NC(=O)N[C@@H](CCC(=O)O)C(=O)O)C(=O)O)cc1[211At]; test system = SCID mouse, PC-3 xenografts, lungs; conditions = 2 h; measurement = tissue uptake; result = 1.99 ± 0.23 %ID/g
Structure (SMILES) = O=C([O-])CN(CCN(CC(=O)[O-])CC(=O)[O-])CCN(CC(=O)[O-])CC(=O)[O-].[177Lu+3]; test system = human serum; conditions = 1.5 h, 37 °C, together with: 177Lu; measurement = radiometal bound to chelator; result = 77%
Structure (SMILES) = COC(=O)C[C@](O)(CCCC(C)(C)OC(C)=O)C(=O)O[C@@H]1C(OC)=C[C@]23CCCN2CCc2cc4c(cc2[C@H]13)OCO4; test system = CD1 mouse, heart; conditions = subcutaneous, 1 mg/kg, 24 h, below quantification limit 1.00 ng/mL; measurement = tissue concentration; result = not detected
